Measurements from different studies.
Numbered parts are unrelated; each lists some results of a single study. Substitutions count along the parent as printed.

Block 1
Target: RNA binding protein fox-1 homolog 2, RRM domain, GST-SBP tag (RBFOX2, Homo sapiens, UniProt O43251-10, residues 100-194)
Technique: RNA Bind-n-Seq
Form: RNA
Sample: in vitro
Concentration: 365 nM
Setting: natural RNA segment, single round, ends assumed
Reference: no-protein control
Direction: higher = stronger binding
Quantity: RBNS enrichment (R)
Construct (chain): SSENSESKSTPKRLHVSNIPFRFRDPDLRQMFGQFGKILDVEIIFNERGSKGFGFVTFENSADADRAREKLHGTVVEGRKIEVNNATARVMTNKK
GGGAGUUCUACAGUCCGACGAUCAGCAUCCUAGAGCUCACUGAGCACUGCUGAGCUUUGACACGCCAGCCACACACAGCUUGCUGCUGUCGUUCUAGCCUUGCCAGUGCACUGUAGAUGCUGGCCUGUCACUCUGGAAUUCUCGGGUGCCAA: 0.337
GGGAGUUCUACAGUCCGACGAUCUUCAUUGGGGAGGAUACAACUUUUGACUUUACACAGGUGGACUUUGAAUCCAUUUUUAUAGAAUUUUUUUCCACUGUAACUUGACCUAUAUUAUGCAAGAAAAUCCCAAAUGGAAUUCUCGGGUGCCAA: 0.635
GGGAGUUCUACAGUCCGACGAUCGGAUGCAUGGGUGCCCGGAUGCAUGGGUGCAUGCUGGUCUCAAGUCACAAGCUGCCUCUAUUUCAGUUCGCUCACCUCUUUGCCCUGUCCCCAGUAUUGAUCCCCCACCCUGGAAUUCUCGGGUGCCAA: 1.86
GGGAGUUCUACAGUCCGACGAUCCAGACCUAAUGGAUCACUGUCUUGCAGCUAGUUCUUCAUGUGGGGCCUCUUAGGCCAGUGCCGGAGGAGGCAUGCUCCUCUUUCUAUGCCACAGAACAAACACUACUCUAUGGAAUUCUCGGGUGCCAA: 0.399
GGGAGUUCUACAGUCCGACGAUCCAUAUUAUUUACCCCACUGUAACAUCAUGUAAACUAAGUAUGUUUUUAAACAAUUUUUAAGACUUGUAAUUACCCUGAAAAUAAGGUUUAUAAUGCAAAGACCAGCUCCUUGGAAUUCUCGGGUGCCAA: 0.277
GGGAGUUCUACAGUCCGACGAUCGCAGCUAAGCUGAAAGUGCCCAGCAGGUGCAAAGGGGAAAAAGAACAAGGUUUGAGGAGGAAGUAGUUGCCUGUCCCAGCCUCAUCUGCUGAGCUCUUUAAGGAAGGUGGUGGAAUUCUCGGGUGCCAA: 1.53
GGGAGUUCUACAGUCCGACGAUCCAGUGUACAGAAACCUCCUCUGUCGUGGCUAGCAUUGAAGCUGGGGUGGAGAACCCGAGGUUAGUUGGGGGCAGACCCGCACAGUGGUAAUGCCGUCCAGUCUCUCCCAGUGGAAUUCUCGGGUGCCAA: 0.342
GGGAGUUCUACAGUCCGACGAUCAGUAUGACGAUGAGCGGACCUUCUUCUGAAGUCCAAAAGGGGAAACCAAAUUCACCGUUAGGAAACAGUGAGCUCCGGCCCCACCUCGUGAACACAAAGCCUCGGAUCAGUGGAAUUCUCGGGUGCCAA: 0.206

Block 2
Target: UBE2L6 UBC core domain (UniProt O14933)
Technique: yeast two-hybrid
Sample: yeast
Setting: mostly zero background
Reference: not given
Direction: higher = stronger interaction
Quantity: lacZ reporter activity
B1: TRIM41 RING domain (UniProt Q8WV44); chain PVQTLQEEAVCAICLDYFTDPVSIGCGHNFCRVCVTQLWGGEDEEDRDELDREEEEEDGEEE
B2: RING1 RING domain (UniProt Q06587); chain SPRSLHSELMCPICLDMLKNTMTTKECLHRFCSDCIVTALRSGNKECPTCRKKLVSKRSLR
B3: MID2 RING domain (UniProt Q9UJV3); chain KMETLESELTCPICLELFEDPLLLPCAHSLCFSCAHRILVSSCSSGESIEPITAFQCPTCRYVISLNHRGL
B4: BFAR RING domain (UniProt Q9NZS9); chain GPQISVSEFSCHCCYDILVNPTTLNCGHSFCRHCLALWWASSKKTECPECREKWEGFPKVS
B5: ZNRF4 RING domain (UniProt Q8WWF5); chain VRTFTWHNDLCAICLDEYEEGDQLKILPCSHTYHCKCIDPWFSQAPRRSCPVCKQSVAATEDSF
B6: RNF103 RING domain (UniProt O00237); chain WPADMLHCTECVVCLENFENGCLLMGLPCGHVFHQNCIVMWLAGGRHCCPVCRWPSYKKKQPY
B7: VPS8 RING domain (UniProt Q8N3P4); chain TRGLNPKQDYCSICLQQYKRRQEMADEIIVFSCGHLYHSFCLQNKECTVEFEGQTRWTCYKCSSSNKVGKLSE
B8: TRIM11 RING domain (UniProt Q96F44); chain LSTNLQEEATCAICLDYFTDPVMTDCGHNFCRECIRRCWGQPEGPYACPECRELSPQRNLRP
B9: RNF186 RING domain (UniProt Q9NXI6); chain HSGSTECDLECLVCREPYSCPRLPKLLACQHAFCAICLKLLLCVQDNTWSITCPLCRKVTAVPGGLI
Residues (chain): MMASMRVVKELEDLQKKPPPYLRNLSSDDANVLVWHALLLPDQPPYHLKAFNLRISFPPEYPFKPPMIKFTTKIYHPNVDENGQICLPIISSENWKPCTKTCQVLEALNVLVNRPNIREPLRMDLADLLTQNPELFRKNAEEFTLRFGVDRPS
B1 (TRIM41 RING domain): 0
B2 (RING1 RING domain): 0
B3 (MID2 RING domain): 0
B4 (BFAR RING domain): 0
B5 (ZNRF4 RING domain): 0
FAEQPSVKLCCQLCCSVFKDPVITTCGHTFCRRCALKSEKCPVDNVKLTVVVNNI (TRAF7 RING domain (UniProt Q6Q0C0)): 0
B6 (RNF103 RING domain): 0
B7 (VPS8 RING domain): 0
B8 (TRIM11 RING domain): 0
DDVLTKDAGECVICLEELLQGDTIARLPCLCIYHKSCIDSWFEVNRSCPEHPAD (ZNRF1 RING domain (UniProt Q8ND25)): 0
LEALSSDFLACKICLEQLRAPKTLPCLHTYCQDCLAQLADGGRVRCPECRETVPVPPEGV (TRIM56 RING domain (UniProt Q9BRZ2)): 0
B9 (RNF186 RING domain): 0
LVKDFNPYITCYICKGYLIKPTTVTECLHTFCKTCIVQHFEDSNDCPRCGNQVHETNPLE (PCGF5 RING domain (UniProt Q86SE9)): 0

Block 3
Target: ABI1, truncated, D143A, DHFR fusion (Arabidopsis thaliana)
Technique: DHFR PCA, deep sequencing
Sample: yeast
Setting: methotrexate growth selection, single substitutions
Together with: (+)-ABA 0 µM
Reference: wild-type fitted maximum
Direction: higher = stronger binding
Quantity: relative binding score
Parent: PYL1, truncated, DHFR fusion (Arabidopsis thaliana); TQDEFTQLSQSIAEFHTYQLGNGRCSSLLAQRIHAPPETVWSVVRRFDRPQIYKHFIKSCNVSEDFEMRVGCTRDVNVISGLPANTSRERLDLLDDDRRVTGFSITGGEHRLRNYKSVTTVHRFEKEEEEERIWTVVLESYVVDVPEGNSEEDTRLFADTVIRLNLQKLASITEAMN
N85I: 59%
D3A: 24.8%
L166R: 2.69%
K126R: 44.9%
A35E: 5.33%
E130R: 28.1%
V136A: -2.41%
Q51M: -6.03%
I33A: 2.64%
R24A: 5.98%
S63D: 31.4%
E152Y: 4.67%
V43F: 6%
A158E: -4.47%
S117E: 6.42%
D96N: 2.41%
T173S: 26.2%
I33D: 0.0294%
Q167Y: -9.68%
R46E: -3.46%
D3H: 24.2%
D48F: 9.14%
E89A: 0.263%
S140L: 4.11%
L20D: 24.9%

Block 4
Target: CCNE2, cyclin fold, Cln2 fusion (human)
Technique: yeast growth competition, sequencing
Sample: yeast
Setting: strong parent motif
Reference: not given
Direction: higher = stronger binding
Quantity: normalised enrichment score
Parent: GMNC docking peptide (human); KNAKRNLSSEFAN
L7H: 0.444
A3T: 0.8
N2M: 0.875
F11Y: 0.264
L7P: 0.58
K4F: 0.772
E10T: 0.779
S8E: 0.791
A12G: 0.935
R5P: -0.167
E10H: 0.83
S8R: 0.967
S9N: 1.44
S9R: 2.56
N6W: 0.187
N2D: 1.13
S9V: 1.52
S9G: 1.01
A3L: 0.891
K4T: 0.285
N6I: 0.287
S8T: 0.899
S8Q: 1.62
S9E: 1.63
A3E: 0.246
